Measured values collected from several papers.
Parts stem from different laboratories: compare values within a part only.
Sequence of UniProt P00519 (whole entry, looked up): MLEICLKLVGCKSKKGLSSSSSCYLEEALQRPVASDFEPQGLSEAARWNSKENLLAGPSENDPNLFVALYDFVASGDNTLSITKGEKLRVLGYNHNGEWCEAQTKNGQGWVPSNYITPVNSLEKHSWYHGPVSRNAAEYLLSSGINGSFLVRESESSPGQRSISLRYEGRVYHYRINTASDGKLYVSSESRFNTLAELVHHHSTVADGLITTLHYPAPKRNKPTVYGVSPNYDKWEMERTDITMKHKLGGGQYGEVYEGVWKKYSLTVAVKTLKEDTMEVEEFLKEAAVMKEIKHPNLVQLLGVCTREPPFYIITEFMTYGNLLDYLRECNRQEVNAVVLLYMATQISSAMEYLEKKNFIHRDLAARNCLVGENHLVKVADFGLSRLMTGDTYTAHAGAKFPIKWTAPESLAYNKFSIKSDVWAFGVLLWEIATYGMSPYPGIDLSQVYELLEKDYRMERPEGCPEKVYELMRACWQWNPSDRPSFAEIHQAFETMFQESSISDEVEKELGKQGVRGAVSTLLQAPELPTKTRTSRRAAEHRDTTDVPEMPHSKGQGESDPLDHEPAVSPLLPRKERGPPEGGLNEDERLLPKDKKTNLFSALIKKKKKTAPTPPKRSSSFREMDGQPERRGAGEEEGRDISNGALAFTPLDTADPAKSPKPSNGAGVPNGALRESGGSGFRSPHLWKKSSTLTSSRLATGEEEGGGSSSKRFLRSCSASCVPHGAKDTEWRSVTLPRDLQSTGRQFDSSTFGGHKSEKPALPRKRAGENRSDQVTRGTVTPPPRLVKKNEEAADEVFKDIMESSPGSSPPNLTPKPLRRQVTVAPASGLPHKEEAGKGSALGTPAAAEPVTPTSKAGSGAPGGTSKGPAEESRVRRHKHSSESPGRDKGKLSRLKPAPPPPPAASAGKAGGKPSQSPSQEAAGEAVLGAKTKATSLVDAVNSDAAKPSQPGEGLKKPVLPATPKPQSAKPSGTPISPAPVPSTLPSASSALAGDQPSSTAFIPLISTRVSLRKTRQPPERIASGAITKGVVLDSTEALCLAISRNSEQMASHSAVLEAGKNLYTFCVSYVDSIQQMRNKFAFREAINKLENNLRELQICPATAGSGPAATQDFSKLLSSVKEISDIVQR
Sequence of UniProt Q96GD4 (whole entry, looked up): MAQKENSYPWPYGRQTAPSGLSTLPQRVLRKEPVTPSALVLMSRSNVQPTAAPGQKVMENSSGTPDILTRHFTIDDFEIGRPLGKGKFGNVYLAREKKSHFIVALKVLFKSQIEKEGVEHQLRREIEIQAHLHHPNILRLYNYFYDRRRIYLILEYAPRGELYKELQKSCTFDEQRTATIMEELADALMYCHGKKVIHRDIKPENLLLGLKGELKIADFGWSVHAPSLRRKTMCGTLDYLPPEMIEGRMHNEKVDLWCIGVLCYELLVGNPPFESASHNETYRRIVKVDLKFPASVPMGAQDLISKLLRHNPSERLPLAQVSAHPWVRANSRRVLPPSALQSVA
Sequence of UniProt Q9Y616 (whole entry, looked up): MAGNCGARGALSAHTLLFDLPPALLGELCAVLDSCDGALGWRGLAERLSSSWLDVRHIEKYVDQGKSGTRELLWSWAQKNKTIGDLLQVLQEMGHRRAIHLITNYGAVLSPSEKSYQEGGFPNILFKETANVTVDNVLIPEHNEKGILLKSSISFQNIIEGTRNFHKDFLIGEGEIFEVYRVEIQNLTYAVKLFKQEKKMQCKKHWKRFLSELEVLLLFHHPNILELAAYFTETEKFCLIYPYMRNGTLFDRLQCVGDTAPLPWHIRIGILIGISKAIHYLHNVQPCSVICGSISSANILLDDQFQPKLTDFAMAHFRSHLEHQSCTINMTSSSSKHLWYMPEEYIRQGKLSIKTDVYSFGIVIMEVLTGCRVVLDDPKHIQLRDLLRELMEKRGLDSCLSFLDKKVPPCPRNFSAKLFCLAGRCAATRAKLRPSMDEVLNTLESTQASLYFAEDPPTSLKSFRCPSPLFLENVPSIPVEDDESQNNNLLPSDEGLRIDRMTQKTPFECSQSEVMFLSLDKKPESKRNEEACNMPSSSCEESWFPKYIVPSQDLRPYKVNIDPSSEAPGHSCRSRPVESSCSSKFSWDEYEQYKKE
Sequence of UniProt Q8WU08 (whole entry, looked up): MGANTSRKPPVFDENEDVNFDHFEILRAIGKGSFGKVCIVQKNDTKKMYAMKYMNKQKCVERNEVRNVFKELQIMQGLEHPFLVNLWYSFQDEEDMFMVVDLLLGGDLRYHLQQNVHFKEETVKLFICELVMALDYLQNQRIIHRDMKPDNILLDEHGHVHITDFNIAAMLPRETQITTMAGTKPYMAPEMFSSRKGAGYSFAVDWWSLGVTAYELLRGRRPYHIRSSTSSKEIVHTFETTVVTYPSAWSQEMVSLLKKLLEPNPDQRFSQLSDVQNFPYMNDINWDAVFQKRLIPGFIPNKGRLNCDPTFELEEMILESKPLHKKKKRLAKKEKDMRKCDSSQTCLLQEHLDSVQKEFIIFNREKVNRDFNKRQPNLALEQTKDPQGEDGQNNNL

Set 1
Target: STE20-like serine/threonine-protein kinase (SLK, Homo sapiens, UniProt Q9H2G2)
Sequence of UniProt Q9H2G2 (whole entry, looked up): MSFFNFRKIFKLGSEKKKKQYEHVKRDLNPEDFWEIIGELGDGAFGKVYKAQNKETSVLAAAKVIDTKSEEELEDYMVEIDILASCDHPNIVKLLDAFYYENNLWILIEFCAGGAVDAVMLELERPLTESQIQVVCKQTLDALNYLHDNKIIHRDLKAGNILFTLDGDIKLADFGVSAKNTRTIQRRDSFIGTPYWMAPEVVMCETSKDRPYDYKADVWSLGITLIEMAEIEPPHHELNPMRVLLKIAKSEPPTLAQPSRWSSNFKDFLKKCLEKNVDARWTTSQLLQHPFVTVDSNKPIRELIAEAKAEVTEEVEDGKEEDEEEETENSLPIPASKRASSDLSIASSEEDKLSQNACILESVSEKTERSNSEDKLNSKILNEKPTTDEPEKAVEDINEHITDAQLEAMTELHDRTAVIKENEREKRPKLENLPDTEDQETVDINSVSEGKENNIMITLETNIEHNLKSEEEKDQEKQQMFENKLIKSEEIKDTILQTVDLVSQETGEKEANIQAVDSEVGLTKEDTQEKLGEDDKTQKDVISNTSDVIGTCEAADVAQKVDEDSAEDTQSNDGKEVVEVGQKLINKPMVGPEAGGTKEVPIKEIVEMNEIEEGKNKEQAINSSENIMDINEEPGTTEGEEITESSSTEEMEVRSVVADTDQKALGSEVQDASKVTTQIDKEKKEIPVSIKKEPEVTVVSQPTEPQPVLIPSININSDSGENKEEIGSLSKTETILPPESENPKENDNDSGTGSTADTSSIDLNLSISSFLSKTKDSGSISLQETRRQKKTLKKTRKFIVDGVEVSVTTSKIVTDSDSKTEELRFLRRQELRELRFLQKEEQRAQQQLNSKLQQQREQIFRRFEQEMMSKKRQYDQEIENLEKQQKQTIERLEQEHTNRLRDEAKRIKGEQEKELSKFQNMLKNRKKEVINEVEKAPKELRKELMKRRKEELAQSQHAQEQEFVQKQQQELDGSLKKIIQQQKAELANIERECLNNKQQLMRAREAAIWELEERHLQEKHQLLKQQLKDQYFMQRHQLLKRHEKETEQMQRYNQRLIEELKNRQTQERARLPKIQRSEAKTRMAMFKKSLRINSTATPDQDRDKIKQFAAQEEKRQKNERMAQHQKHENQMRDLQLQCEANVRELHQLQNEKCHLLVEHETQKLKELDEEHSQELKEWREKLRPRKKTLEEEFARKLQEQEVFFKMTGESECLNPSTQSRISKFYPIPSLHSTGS
Effect on: enzyme activity
Action: inhibitor
Tested at: 0.5 µM
Reference: control
With `COc1ccc(C(=O)Nc2sc3c(c2C(N)=O)CCCC3)cc1OC` the remaining activity was 92.5%.
`CN(C)c1ccc(C=C2C(=O)Nc3ccccc32)cc1` gave a remaining activity of 103%.
`Cn1c2ccccc2c2c3c(c4c5ccccc5n(CCC#N)c4c21)CNC3=O` has a remaining activity of 34.1%.
With `Nc1[nH]nc2nc3ccccc3nc12` the remaining activity was 92.5%.
`Nc1ncnc2n[nH]c(Nc3ccc(F)cc3)c12` has a remaining activity of 99.5%.
`OCC(O)CCON=C1C(c2c(O)[nH]c3ccccc23)=Nc2ccccc21` (stereo not drawn) has a remaining activity of 59.9%.
With `COc1cc2nccc(Oc3ccc(NC(=S)NC(=O)c4ccccc4C)cc3)c2cc1OC` the remaining activity was 6.2%.
`O=C(Nc1cccc(Nc2cc(Nc3cccc(C(F)(F)F)c3)ncn2)c1)C1CC1` gave a remaining activity of 102%.
`COc1cc2ncnc(Nc3ccc(Oc4ccccc4)cc3)c2cc1OC` has a remaining activity of 88.7%.
With `O=C1NC(=O)C(c2cn(CCCn3ccnc3)c3ccccc23)=C1Nc1ccccc1` the remaining activity was 39.1%.
The remaining activity of `CC(C)[C@H](CO)Nc1nc(Nc2cc(N)cc(Cl)c2)c2ncn(C(C)C)c2n1` is reported as 39.8%.
For `O=C(CCCc1ccc(-c2ccccc2F)cc1)Nc1ccc(O)cc1`, the remaining activity was 102%.

Set 2
Cell line: A-375
Tested at: 100 µM
Time: 36 h
For `CCN(CC)CCCC(C)Nc1c2ccc(Cl)cc2nc2ccc(OC)cc12` (stereo not drawn), the viability was -0.606%.
`CC1(C)[C@H]2CC[C@]1(C)C(=O)C2` gave a viability of 113%.
With `CN1CCC(OC(c2ccccc2)c2ccccc2)CC1` the viability was 96.7%.
For `CCCCC(=O)O[C@H]1CC[C@H]2[C@@H]3CCc4cc(O)ccc4[C@H]3CC[C@]12C`, the viability was -3%.

Set 3
Structure (SMILES): O=C(NS(=O)(=O)c1ccc(NCC2CCOCC2)c([N+](=O)[O-])c1)c1ccc(N2CCN(Cc3ccc(C(F)(F)F)cc3-c3ccc(Cl)cc3)CC2)cc1Oc1cnc2[nH]ccc2c1
Effect on: cell-free assay
Technique: competition with immobilised ligand
Tested at: 1 µM
It gave 80% for remaining binding (FLT3 (Homo sapiens, UniProt P36888)).
The remaining binding was 99% (STK32A (Homo sapiens, UniProt Q8WU08)).
It gave 100% for remaining binding (ABL2 (Homo sapiens, UniProt P42684)).
For PAK1 (Homo sapiens, UniProt Q13153): remaining binding read 100%.
The remaining binding was 100% (IRAK3 (Homo sapiens, UniProt Q9Y616)).
It gave 86% for remaining binding (Tyrosine-protein kinase ABL1, phosphorylated (ABL1, Homo sapiens, UniProt P00519)).
Aurora kinase B (AURKB, Homo sapiens, UniProt Q96GD4) — remaining binding: 100%.

Other studies, line by line
With `Cc1cc(-c2ccc(/N=N/c3ccc4c(S(=O)(=O)O)cc(S(=O)(=O)O)c(N)c4c3O)c(C)c2)ccc1/N=N/c1ccc2c(S(=O)(=O)O)cc(S(=O)(=O)O)c(N)c2c1O` the IC50 was 941 nM (Calcium/calmodulin-dependent protein kinase type II subunit delta (CAMK2D, Homo sapiens, UniProt Q13557); enzyme activity, inhibitor).

Repeated from above (set 3):
It gave 80% for remaining binding (FLT3 (Homo sapiens, UniProt P36888)).
